Published values collected from several papers.
Each line is one published result; not all experiments were run side by side.
Target: Cytochrome P450 1A2 (CYP1A2, Homo sapiens, UniProt P05177)
Chain of UniProt P05177 (whole entry, looked up): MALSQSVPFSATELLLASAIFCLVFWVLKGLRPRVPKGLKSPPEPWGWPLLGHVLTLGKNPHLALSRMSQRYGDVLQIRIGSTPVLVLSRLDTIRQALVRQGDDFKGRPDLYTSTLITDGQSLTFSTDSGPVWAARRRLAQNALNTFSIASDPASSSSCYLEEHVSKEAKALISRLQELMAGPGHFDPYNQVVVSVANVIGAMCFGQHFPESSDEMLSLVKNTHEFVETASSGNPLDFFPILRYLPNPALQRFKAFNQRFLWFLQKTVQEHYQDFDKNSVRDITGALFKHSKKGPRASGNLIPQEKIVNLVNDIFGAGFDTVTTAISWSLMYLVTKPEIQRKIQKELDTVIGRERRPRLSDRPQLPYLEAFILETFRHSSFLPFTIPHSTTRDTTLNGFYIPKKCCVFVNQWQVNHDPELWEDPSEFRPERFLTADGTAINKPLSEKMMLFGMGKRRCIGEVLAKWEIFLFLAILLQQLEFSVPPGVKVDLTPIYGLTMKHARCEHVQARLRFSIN
Action: inhibitor

Structure (SMILES)	assay	system	setting	quantity	result
CC[C@@H]1CN2CCc3c([nH]c4cccc(OC)c34)[C@H]2C[C@@H]1/C(=C\OC)C(=O)OC	enzyme activity	human, liver microsomes	–	IC50	> 45 µM
CNC(=O)Oc1cc(C)c(SC)c(C)c1	–	human liver microsomes	10 µM, pH 7.4, added: phenacetin	inhibition	88.9%
O=S(=O)(O)C(F)(F)C(F)(F)C(F)(F)C(F)(F)F	enzyme activity	Supersomes	added: 7-methoxyresorufin substrate	IC50	> 100 µM
C#CCOc1ccccc1-c1cc(=O)c2ccccc2o1	enzyme activity	–	–	IC50	1.29 µM
O=C1Cc2cc(CCN3CCN(c4nsc5ccccc45)CC3)c(Cl)cc2N1	–	human liver microsomes	2 µM, pH 7.4, added: phenacetin	inhibition	< 0%
O=S(=O)(O)C(F)(F)C(F)(F)C(F)(F)C(F)(F)C(F)(F)C(F)(F)C(F)(F)C(F)(F)F	enzyme activity, fluorescence	–	–	IC50	25.7 µM
C#CCOc1ccc2c(=O)cc(-c3ccccc3)oc2c1	enzyme activity	–	–	IC50	0.41 µM
O=C(Cc1ccccc1Nc1c(Cl)cccc1Cl)Oc1ccc(-c2cc(=S)ss2)cc1	enzyme activity, fluorescence	–	–	IC50	1.75 µM
CNC(=O)O/N=C/C(C)(C)SC	–	human liver microsomes	10 µM, pH 7.4, added: phenacetin	inhibition	5.89%
CC[C@@H]1CN2CC[C@@]3(O)C(=Nc4cccc(OC)c43)[C@@H]2C[C@@H]1/C(=C\OC)C(=O)OC	enzyme activity	human, liver microsomes	–	IC50	> 45 µM
CNC(=O)O/N=C/C(C)(C)S(C)(=O)=O	–	human liver microsomes	2 µM, pH 7.4, added: phenacetin	inhibition	1.41%
O=c1cc(-c2ccc(O)cc2)oc2ccccc12	enzyme activity	–	–	IC50	6.52 µM
